Assay results gathered from unrelated publications.
Each numbered part is a random draw from the data of one study; scales do not carry over between parts. “And” joins repeats or separate records; there may be more than shown.
UniProt P29317, sequence (whole entry, looked up): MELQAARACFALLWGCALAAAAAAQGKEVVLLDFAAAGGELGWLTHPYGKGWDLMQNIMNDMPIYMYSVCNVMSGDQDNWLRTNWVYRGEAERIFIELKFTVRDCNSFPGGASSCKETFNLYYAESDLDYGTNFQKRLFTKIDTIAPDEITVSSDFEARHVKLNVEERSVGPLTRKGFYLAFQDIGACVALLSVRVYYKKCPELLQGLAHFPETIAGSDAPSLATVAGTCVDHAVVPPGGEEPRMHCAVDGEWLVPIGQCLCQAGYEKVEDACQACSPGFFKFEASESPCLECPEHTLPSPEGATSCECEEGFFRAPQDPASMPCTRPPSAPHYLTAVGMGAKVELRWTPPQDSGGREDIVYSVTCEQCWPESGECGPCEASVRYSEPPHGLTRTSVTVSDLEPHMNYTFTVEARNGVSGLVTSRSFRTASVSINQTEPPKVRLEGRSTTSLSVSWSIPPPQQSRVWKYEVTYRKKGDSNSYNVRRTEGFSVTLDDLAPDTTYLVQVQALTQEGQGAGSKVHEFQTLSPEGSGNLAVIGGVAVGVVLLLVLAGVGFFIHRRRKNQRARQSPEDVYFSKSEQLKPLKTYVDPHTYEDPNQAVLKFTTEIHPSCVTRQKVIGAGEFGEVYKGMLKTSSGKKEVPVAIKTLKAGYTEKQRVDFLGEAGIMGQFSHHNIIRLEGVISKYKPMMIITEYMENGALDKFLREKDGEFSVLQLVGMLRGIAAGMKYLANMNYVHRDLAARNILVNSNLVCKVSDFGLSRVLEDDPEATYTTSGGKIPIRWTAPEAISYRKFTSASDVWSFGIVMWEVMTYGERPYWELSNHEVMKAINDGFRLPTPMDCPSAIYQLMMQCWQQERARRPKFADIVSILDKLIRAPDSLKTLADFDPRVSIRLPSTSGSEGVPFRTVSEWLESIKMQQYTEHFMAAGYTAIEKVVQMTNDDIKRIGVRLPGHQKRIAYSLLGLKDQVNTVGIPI
UniProt P42680, sequence (whole entry, looked up): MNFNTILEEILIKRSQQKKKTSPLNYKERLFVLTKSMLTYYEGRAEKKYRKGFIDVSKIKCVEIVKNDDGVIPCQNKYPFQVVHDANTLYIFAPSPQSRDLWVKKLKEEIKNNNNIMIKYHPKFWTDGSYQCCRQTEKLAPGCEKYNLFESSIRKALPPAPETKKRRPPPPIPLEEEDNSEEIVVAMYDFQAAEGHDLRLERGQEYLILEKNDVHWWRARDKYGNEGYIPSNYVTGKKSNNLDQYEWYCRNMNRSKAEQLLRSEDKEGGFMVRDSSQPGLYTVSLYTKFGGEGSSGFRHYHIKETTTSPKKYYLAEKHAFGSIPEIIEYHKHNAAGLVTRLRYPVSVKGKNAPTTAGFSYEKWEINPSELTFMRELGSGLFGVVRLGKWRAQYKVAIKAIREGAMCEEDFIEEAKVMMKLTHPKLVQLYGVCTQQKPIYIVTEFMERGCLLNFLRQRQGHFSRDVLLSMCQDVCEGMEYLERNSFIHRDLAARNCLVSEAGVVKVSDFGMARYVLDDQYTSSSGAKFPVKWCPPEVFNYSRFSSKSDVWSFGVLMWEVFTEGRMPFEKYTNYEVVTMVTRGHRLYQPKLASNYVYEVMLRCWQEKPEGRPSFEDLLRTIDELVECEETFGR
UniProt O76039, sequence (whole entry, looked up): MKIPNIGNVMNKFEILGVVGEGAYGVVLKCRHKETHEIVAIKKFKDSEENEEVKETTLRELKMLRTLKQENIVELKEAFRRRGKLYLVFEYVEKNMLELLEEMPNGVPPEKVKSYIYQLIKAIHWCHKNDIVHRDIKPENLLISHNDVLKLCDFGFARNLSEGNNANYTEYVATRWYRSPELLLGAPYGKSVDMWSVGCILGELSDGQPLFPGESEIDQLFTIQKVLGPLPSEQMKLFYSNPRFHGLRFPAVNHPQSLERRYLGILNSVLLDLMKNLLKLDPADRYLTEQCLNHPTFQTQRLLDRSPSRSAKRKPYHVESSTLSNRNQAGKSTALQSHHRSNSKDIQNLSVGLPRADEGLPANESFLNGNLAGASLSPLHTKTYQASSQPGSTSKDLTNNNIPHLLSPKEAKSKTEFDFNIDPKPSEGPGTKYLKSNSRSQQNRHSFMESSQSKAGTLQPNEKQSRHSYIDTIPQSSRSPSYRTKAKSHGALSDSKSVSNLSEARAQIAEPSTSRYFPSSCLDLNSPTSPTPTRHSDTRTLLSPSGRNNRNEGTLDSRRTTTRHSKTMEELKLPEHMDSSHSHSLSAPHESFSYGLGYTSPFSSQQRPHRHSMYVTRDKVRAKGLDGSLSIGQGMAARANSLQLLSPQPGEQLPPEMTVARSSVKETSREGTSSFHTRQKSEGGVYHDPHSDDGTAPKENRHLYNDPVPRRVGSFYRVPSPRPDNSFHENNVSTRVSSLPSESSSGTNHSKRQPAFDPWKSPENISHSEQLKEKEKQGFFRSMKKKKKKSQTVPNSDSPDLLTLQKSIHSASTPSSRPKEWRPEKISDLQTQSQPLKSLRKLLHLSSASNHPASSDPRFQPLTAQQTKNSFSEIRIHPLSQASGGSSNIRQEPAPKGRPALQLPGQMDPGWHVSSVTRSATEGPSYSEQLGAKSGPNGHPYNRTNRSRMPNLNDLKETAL
UniProt Q9NQU5, sequence (whole entry, looked up): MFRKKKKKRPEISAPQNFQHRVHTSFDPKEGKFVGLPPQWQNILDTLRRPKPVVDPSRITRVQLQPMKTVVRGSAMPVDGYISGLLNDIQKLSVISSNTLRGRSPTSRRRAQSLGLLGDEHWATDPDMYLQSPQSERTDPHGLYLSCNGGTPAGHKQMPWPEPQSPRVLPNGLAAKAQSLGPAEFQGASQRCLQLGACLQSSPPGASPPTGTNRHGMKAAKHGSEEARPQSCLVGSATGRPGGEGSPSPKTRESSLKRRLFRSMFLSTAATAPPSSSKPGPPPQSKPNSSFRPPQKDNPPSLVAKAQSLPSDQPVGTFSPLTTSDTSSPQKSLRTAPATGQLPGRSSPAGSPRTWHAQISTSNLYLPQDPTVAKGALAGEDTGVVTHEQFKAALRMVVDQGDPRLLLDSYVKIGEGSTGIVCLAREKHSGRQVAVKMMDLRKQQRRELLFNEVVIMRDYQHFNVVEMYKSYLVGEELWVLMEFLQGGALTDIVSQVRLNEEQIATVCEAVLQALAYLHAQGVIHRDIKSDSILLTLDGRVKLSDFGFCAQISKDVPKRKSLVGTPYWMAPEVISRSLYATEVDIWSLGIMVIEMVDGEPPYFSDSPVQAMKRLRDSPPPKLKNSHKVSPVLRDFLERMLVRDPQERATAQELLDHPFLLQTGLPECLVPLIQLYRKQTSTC
UniProt Q9HBY8, sequence (whole entry, looked up): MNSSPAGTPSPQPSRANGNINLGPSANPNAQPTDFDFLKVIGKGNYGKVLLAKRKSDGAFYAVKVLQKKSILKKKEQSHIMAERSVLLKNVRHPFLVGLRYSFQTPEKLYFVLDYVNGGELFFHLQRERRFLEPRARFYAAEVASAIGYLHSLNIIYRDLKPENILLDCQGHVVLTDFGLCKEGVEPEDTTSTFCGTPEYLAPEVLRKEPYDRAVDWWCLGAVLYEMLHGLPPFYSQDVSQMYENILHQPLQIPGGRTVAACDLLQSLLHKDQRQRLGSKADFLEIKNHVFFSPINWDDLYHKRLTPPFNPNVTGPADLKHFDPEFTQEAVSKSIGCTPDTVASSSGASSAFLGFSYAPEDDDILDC
UniProt P48730, sequence (whole entry, looked up): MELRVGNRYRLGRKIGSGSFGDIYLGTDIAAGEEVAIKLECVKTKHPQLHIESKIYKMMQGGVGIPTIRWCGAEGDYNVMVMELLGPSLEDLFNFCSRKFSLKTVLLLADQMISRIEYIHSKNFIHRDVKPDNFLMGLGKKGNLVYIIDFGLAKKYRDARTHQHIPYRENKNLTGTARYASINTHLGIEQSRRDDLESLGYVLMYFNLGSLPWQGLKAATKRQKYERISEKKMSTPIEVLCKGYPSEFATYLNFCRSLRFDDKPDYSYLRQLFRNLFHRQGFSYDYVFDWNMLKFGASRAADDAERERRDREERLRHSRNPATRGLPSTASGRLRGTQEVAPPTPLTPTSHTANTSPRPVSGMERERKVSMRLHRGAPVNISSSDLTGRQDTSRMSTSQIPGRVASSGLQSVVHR
UniProt Q13153, sequence (whole entry, looked up): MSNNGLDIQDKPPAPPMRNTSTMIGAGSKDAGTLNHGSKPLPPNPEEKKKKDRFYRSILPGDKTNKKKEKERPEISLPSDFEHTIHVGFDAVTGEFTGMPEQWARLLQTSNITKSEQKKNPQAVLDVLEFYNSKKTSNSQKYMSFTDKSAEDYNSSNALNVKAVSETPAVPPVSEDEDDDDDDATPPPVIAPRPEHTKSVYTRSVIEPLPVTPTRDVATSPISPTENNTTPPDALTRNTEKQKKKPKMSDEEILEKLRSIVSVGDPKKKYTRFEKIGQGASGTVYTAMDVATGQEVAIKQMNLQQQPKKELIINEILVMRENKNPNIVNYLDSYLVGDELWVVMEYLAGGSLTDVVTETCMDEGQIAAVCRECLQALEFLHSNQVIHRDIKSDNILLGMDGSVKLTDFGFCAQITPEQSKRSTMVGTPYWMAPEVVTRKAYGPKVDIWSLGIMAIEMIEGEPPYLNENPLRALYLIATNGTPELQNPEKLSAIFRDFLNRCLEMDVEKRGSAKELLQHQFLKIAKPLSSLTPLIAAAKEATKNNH

Study 1 — tested at: 1 µM; endpoint: remaining binding
SMILES: C[C@H]1CC[C@H](n2c3cnccc3c3cnc(Nc4ccc5c(n4)CCN(C(=O)CO)C5)nc32)CC1
target = DMPK (Homo sapiens, UniProt Q09013); test = binding, competition with immobilised ligand; result = 100%
target = MAP3K2 (Homo sapiens, UniProt Q9Y2U5); test = binding, competition with immobilised ligand; result = 82%
target = CDKL5 (Homo sapiens, UniProt O76039); test = binding; result = 12%
target = BTK (Homo sapiens, UniProt Q06187); test = cell-free assay, competition with immobilised ligand; result = 49%
target = ACVR1 (Homo sapiens, UniProt Q04771); test = cell-free assay, competition with immobilised ligand; result = 97%
target = TEC (Homo sapiens, UniProt P42680); test = binding, competition with immobilised ligand; result = 100%
target = CSNK1A1L (Homo sapiens, UniProt Q8N752); test = binding; result = 79%
target = FYN (Homo sapiens, UniProt P06241); test = binding, competition with immobilised ligand; result = 64%
target = PIP4K2C (Homo sapiens, UniProt Q8TBX8); test = binding; result = 3.8%
target = FLT4 (Homo sapiens, UniProt P35916); test = cell-free assay, competition with immobilised ligand; result = 44%
target = EPHA2 (Homo sapiens, UniProt P29317); test = cell-free assay, competition with immobilised ligand; result = 86%

Study 2 — species: mouse; medium: EL4 tumour; dose: dose not given; endpoint: normalized intensity
SMILES: CC(=O)N[C@@H](Cc1c[nH]c2ccccc12)C(=O)N[C@@H](CCC(=O)C=[N+]=[N-])C(=O)OC(C)C
test = refers to: citrate; result = -0.218 and -0.29 and -0.231 and 0.125 and 0.0412 and 0.138
test = refers to: isocitrate; result = -0.0936 and 0.0304 and 0.0105 and -0.199 and -0.0161 and 0.042
test = refers to: guanosine; result = -0.0372 and 0.052 and -0.0693 and -0.207 and -0.0975
test = refers to: quinolinic acid; result = -0.091 and -0.028 and 0.085 and 0.13 and 0.116 and 0.00742
test = refers to: glutamine; result = 0.0833 and 0.0245 and 0.09 and 0.0813 and 0.0859 and 0.154
test = refers to: tryptophan; result = -0.0618 and 0.0473 and 0.11 and 0.047 and 0.0806 and 0.0625
test = refers to: guanine; result = -0.32 and -0.0091 and -0.111 and -0.239 and -0.256 and -0.109

Study 3 — observed: binding; technique: radioligand binding; tested at: 10 µM; endpoint: inhibition
Target: Alpha-2C adrenergic receptor (ADRA2C, Homo sapiens, UniProt P18825)
UniProt P18825, sequence (whole entry, looked up): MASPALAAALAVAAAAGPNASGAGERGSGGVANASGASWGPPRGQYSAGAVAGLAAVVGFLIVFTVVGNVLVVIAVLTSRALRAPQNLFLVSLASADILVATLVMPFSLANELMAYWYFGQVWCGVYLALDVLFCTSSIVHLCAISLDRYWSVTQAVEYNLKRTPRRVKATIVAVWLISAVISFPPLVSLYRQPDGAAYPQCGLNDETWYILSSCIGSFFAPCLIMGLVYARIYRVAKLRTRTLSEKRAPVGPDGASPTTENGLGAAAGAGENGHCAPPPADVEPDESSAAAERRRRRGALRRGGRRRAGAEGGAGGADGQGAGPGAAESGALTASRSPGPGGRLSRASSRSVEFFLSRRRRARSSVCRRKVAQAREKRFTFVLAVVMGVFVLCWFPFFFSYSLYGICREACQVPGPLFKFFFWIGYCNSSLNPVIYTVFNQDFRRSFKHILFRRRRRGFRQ
SMILES = COCCc1ccc(-c2c(C)nc3c(N4CCOCC4)ccnn23)cn1; result = 41.3%
SMILES = Cc1c(NC(=O)c2cc(C(N)=O)nc3cc(F)ccc23)c(C(F)(F)F)nn1Cc1ccc(C(C)(C)C)cc1; result = 2.11%
SMILES = CC(C)(O)c1cncc(-c2nc3ccc(F)cc3n2C2CC2)c1; result = 70.1%
SMILES = O=C1CCc2cc(Nc3cc(OC4CCOCC4)c([N+](=O)[O-])cc3Cl)ccc2N1; result = -0.13%
SMILES = Cc1cc(-n2nc(Cc3cc(F)cc(C(F)(F)F)c3)nc2C)ccc1C(N)=O; result = 9.76%
SMILES = Cc1nccc(COC(=O)N2C[C@@H]3[C@@H](CNC(=O)c4ccc5[nH]nnc5c4)[C@@H]3C2)n1; result = 3.82%
SMILES = COc1cccc(CNC(=O)c2nc3scc(COCc4ccc(C(=O)O)cc4)c3c(=O)[nH]2)c1; result = 4.23%
SMILES = O=C(O)c1cc(-c2ccc(C3CCNCC3)cc2)c2ccc(-c3ccc(C(F)(F)F)cc3)cc2c1; result = 30.2%
SMILES = Cc1nc(N2CC[C@@H](O)C2)ncc1-c1cc(C(F)(F)F)cc2[nH]ncc12; result = 2.18%
SMILES = CC(=O)c1c(NS(C)(=O)=O)c2cc(-c3ccc(Cl)cc3)c(-c3ccc(Cl)cc3Cl)nc2n(C)c1=O; result = 78.9%
SMILES = O=C(Nc1cnc(Oc2ccc(F)cc2)nc1)N1CCc2ncccc2[C@@H]1c1ccc(F)cc1; result = 8.55%
SMILES = CCOCCn1cc(C(=O)Nc2ccc(-n3nc(-c4cccnc4)cc3C(F)(F)F)cn2)ccc1=O; result = -13.3%
SMILES = CC(C)CC(=O)N1CCc2nc(-c3ccc(Br)cc3)nc(N(C)Cc3ccccc3)c2C1; result = 48%
SMILES = Cc1c(N2CCCC2)nc2ccc(Br)cc2c1C(=O)NC[C@H](CCC(=O)O)c1ccccc1Cl; result = 16.1%
SMILES = O=C1c2ccc(Nc3ccc(F)cc3F)cc2CCc2ccc(OC[C@H](O)CO)cc21; result = 10.8%
SMILES = CC(=O)Nc1c(F)cc(C(=O)N[C@H]2CC[C@H](O)CC2)cc1O[C@@H](C)c1ccccc1; result = -0.86%
SMILES = Cc1nc(C2CCN(C(=O)c3ccc(OC(F)(F)F)cc3N)CC2)c2ncc(N3CCN(C)CC3)cc2n1; result = -6.01%
SMILES = CN(C)C(=O)Cn1cc(-c2nc([C@@](C)(c3ccc(-c4cnc(N)nc4)cc3)C3CC3)no2)cn1; result = -10.5%
SMILES = O[C@]1(C(F)(F)F)CCCC[C@H]1Nc1ccc(F)cc1; result = 4.19%
SMILES = O=C(NC[C@@H]1[C@H]2CN(C(=O)OCc3cc(C(F)(F)F)cc(C(F)(F)F)c3)C[C@@H]12)c1ccc2[nH]nnc2c1; result = 19%
SMILES = CN1CCN(C(=O)C(C)(C)c2ccc(C(=O)Nc3cn4cc(-c5ccncc5)ccc4n3)cc2)CC1; result = 17.2%
SMILES = COc1nc2ccc([C@@](O)(c3ccccc3)C3CCN(C(C)=O)CC3)cc2c(Cl)c1Cc1ccc(-n2cccn2)cc1; result = 39.8%
SMILES = CN1C(=O)[C@@H](N2CCc3cn(Cc4ccccc4)nc3C2=O)COc2ccccc21; result = 34.7%
SMILES = O=C([C@H]1C[C@H](O)CN1c1ccc(Cl)cc1)N1CC2COCC(C1)N2Cc1ccc(Cl)cc1; result = 14.4%
SMILES = O=C(Nc1ccc(-n2nc(-c3cccnc3)cc2C(F)(F)F)cn1)c1ccc(-c2ccccc2)c(F)c1; result = 6.33%

Study 4 — Compound: COc1cccc(-c2cc(=O)c3ccccc3o2)c1N; observed: enzyme activity; mode: inhibitor; tested at: 0.5 µM; baseline: control; endpoint: remaining activity
target = Cyclin-dependent kinase 2, with cyclin E (CDK2, Homo sapiens, UniProt P24941); result = 95.3%
target = SIK2 (Homo sapiens, UniProt Q9H0K1); result = 102%
target = PRKCQ (Homo sapiens, UniProt Q04759); result = 103%
target = SRPK1 (Homo sapiens, UniProt Q96SB4); result = 93.4%
target = MUSK (Homo sapiens, UniProt O15146); result = 94.2%
target = IGF1R (Homo sapiens, UniProt P08069); result = 91.3%
target = CSNK1D (Homo sapiens, UniProt P48730); result = 99.1%
target = FLT1 (Homo sapiens, UniProt P17948); result = 87.7%
target = EPHA6 (Homo sapiens, UniProt Q9UF33); result = 81.2%
target = CSNK1E (Homo sapiens, UniProt P49674); result = 97.5%
target = PAK1 (Homo sapiens, UniProt Q13153); result = 97.5%
target = TEC (Homo sapiens, UniProt P42680); result = 99.2%
target = EPHA2 (Homo sapiens, UniProt P29317); result = 105%
target = CLK1 (Homo sapiens, UniProt P49759); result = 97.7%
target = PAK6 (Homo sapiens, UniProt Q9NQU5); result = 95.5%
target = MAP3K20 (Homo sapiens, UniProt Q9NYL2); result = 103%
target = RPS6KA3 (Homo sapiens, UniProt P51812); result = 93.6%
target = JAK1 (Homo sapiens, UniProt P23458); result = 98.9%
target = SGK2 (Homo sapiens, UniProt Q9HBY8); result = 95.9%
target = PRKCZ (Homo sapiens, UniProt Q05513); result = 99.1%
target = TYRO3 (Homo sapiens, UniProt Q06418); result = 96.9%
target = CLK2 (Homo sapiens, UniProt P49760); result = 103%
target = CAMK1 (Homo sapiens, UniProt Q14012); result = 98.5%
target = CAMKK1 (Homo sapiens, UniProt Q8N5S9); result = 98.8%

Excerpt of the above (study 3):
SMILES = CN(C)C(=O)Cn1cc(-c2nc([C@@](C)(c3ccc(-c4cnc(N)nc4)cc3)C3CC3)no2)cn1; result = -10.5%
SMILES = O[C@]1(C(F)(F)F)CCCC[C@H]1Nc1ccc(F)cc1; result = 4.19%
SMILES = O=C(NC[C@@H]1[C@H]2CN(C(=O)OCc3cc(C(F)(F)F)cc(C(F)(F)F)c3)C[C@@H]12)c1ccc2[nH]nnc2c1; result = 19%
SMILES = CN1CCN(C(=O)C(C)(C)c2ccc(C(=O)Nc3cn4cc(-c5ccncc5)ccc4n3)cc2)CC1; result = 17.2%
SMILES = COc1nc2ccc([C@@](O)(c3ccccc3)C3CCN(C(C)=O)CC3)cc2c(Cl)c1Cc1ccc(-n2cccn2)cc1; result = 39.8%
SMILES = CN1C(=O)[C@@H](N2CCc3cn(Cc4ccccc4)nc3C2=O)COc2ccccc21; result = 34.7%
SMILES = O=C([C@H]1C[C@H](O)CN1c1ccc(Cl)cc1)N1CC2COCC(C1)N2Cc1ccc(Cl)cc1; result = 14.4%
